Experimental data of several laboratories.
A part holds a random share of what one study measured.

Series 1 — method: protein-binding microarray; molecule type: double-stranded DNA, one strand shown; matrix: in vitro; tested at: 940 nM top; setting: 60-bp whole probe; with: salmon DNA 0.4 mg/ml; reference: random background probes; direction: higher = stronger binding; quantity: fitted relative affinity; constant ends, left off below: GCCTAGCAC … GTCTTGATTCGCTTGACGCTGCTG
Target: Interferon regulatory factor 5, full length, phosphomimetic (IRF5, Homo sapiens, UniProt Q13568-2, residues 1-514, S451D/S453D/S456D/S462D)
Sequence = GACGGTCTCCTTTTCCTGTCGTGCTAG; value = 2.1 z-score
Sequence = GACGGTTTCGACGCTGGGGACGTGCTA; value = 6.29 z-score
Sequence = GACGGACTGGGGTTTCGGGAGGTGCTA; value = 1.68 z-score
Sequence = TTAGGTATCCGGTATCGGTTAGTGCTA; value = 4.35 z-score
Sequence = TTAGATCTCAGACTGGATTTGTGCTAG; value = -0.376 z-score
Sequence = TTAGATCTCAGACCGGATTAGTGCTAG; value = -0.273 z-score
Sequence = GACGGACTGCCTATCCTGACGTGCTAG; value = -0.438 z-score

Series 2 — method: competition protein-binding microarray; molecule type: double-stranded DNA, one strand shown; matrix: in vitro; tested at: 2 µM; with: Pho4 competitor, 0.05 µM; direction: higher = stronger binding; quantity: fluorescence intensity; constant ends, left off below: … GTCTTGATTCGCTTGACGCTGCTG
Target: Centromere-binding protein 1, full length, His-tagged (CBF1, Saccharomyces cerevisiae, UniProt P17106, residues 1-351)
UniProt P17106, sequence (whole entry, looked up): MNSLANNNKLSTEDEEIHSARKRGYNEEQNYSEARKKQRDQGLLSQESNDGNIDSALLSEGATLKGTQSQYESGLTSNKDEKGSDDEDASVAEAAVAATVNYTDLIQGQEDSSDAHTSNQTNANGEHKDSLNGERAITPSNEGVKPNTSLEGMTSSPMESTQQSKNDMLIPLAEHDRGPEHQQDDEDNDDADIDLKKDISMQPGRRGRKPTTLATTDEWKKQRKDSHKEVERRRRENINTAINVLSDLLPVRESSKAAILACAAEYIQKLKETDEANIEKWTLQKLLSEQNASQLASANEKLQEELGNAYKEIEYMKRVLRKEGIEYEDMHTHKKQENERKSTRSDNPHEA
Setting: whole 60-bp probe, lowest competitor level
Sequence = CATACCCAACCTTGTCACTCGACTTAAGATATTTGT; value = 89.8 a.u.
Sequence = GTCCGTAACAATTTGCACGATGCTGGCTTCTATGCC; value = 82.2 a.u.
Sequence = TTTACAAGCCAGAAAGCCGTGATGGCTTGATTATCA; value = 65 a.u.
Sequence = CTTCTGTAAATTTGGTGGGTGGGTGGACGCGCCCCG; value = 104 a.u.
Sequence = GCTGCTGGCTAAAATAGTGTGACGAAACGTACATAG; value = 85.3 a.u.
Sequence = GCATTTTTCGGGGCGCCCGTGCAAAAACTAACTCCG; value = 80.3 a.u.

Series 3 — method: RNA Bind-n-Seq; molecule type: RNA; matrix: in vitro; tested at: 200 nM; setting: whole 134-nt RNA, ends assumed; with: 150 mM KCl; reference: input library; direction: higher = stronger binding; quantity: log2 enrichment
Target: Ras GTPase-activating protein-binding protein 1, full length (G3BP1, Homo sapiens, UniProt Q13283)
UniProt Q13283, sequence (whole entry, looked up): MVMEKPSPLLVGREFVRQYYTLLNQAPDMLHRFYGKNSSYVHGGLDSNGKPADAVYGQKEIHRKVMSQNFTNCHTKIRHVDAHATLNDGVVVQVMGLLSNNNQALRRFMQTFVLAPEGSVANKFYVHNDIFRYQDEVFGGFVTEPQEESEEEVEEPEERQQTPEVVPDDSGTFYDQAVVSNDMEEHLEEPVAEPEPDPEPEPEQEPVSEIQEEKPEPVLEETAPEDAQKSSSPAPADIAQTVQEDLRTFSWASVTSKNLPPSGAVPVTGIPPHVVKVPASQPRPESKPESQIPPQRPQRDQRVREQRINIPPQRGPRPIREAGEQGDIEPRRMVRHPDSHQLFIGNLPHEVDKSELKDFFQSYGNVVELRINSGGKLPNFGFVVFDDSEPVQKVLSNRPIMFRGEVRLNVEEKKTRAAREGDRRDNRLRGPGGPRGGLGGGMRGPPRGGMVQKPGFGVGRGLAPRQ
Sequence = GGGAGUUCUACAGUCCGACGAUCGUCCUGUGCUACACAUCGUAUGUACCGAAUCAAAUUUUUUUAAAUUUUUAAACCCAAAAAAGUAUUAUGUUACGCCGUUCGGAUCUGCACUGGAAUUCUCGGGUGUCAAGG; value = -0.271
Sequence = GGGAGUUCUACAGUCCGACGAUCCACAGACAACACGCACCCACACAGACACAGAGGGAAGGGGUUGGGAUGGGGACAGGGCGCACAGCAGGGCGGGGUAGGACCCCAGCCCCUUGGAAUUCUCGGGUGUCAAGG; value = 1.75
Sequence = GGGAGUUCUACAGUCCGACGAUCUCAAGUCCUGUGCUACACAUCGUAUGUACCGAAUCGGAGGUUUGGUUUUUUUGGAAAGUAUUAUGUUACGCCGUUCGGAUCUGCACUUCCUGGAAUUCUCGGGUGUCAAGG; value = -0.673
Sequence = GGGAGUUCUACAGUCCGACGAUCAGUCCUGUGCUACACAUCGUAUGUACCGAAUCGGGCCCCGGGCCCCGGGCCCCGGGGAAAGUAUUAUGUUACGCCGUUCGGAUCUGCACUUGGAAUUCUCGGGUGUCAAGG; value = -1.18

Single results of other studies
Substance = PhoQ, residues 284 288 289 292 302 303 TAVSDG; target = PhoP, residues 12 14 15 18 19 GQALL (Escherichia coli, UniProt P23836); test = Sort-seq, item: YFP reporter; test system = E. coli; setting = PhoQ-PhoP variant library, with: 10 µM Mg2+; scale = reference: high Mg2+ state, higher = stronger signaling; quantity = fold induction; value = 15.5

Excerpt of the above (series 1):
Sequence = GACGGTTTCGACGCTGGGGACGTGCTA; value = 6.29 z-score
